# Published values from different studies.
# Numbered parts are unrelated; each lists some results of a single study. Positions count from the first letter of the parent shown.

# Block 1
# Target: CCNE2, cyclin fold, Cln2 fusion (human)
# Technique: yeast growth competition, sequencing
# Matrix: yeast
# Notes: weak parent motif
# Relative to: not given
# Reading: higher = stronger binding
# Starting sequence: PKN2 docking peptide (human); VSAVQKLDFSDTM; partner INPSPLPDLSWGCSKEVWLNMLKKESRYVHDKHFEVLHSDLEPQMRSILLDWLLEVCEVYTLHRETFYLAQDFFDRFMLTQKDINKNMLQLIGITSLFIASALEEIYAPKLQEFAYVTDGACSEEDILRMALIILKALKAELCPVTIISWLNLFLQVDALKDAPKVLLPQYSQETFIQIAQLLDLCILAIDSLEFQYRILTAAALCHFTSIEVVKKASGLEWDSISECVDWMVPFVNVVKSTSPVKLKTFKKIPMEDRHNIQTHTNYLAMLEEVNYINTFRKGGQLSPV
Variant,normalised enrichment score
D11R,0.489
D11M,-0.102
D8W,0.561
M13R,0.493
T12Q,-0.329
S10Y,0.513
V4G,-0.131
V4F,-0.0751
D11N,0.279
V1M,-0.254
S10N,-0.295
F9V,-0.675
F9D,0.179
M13I,0.408
F9N,0.414
S10V,0.406
V1S,0.398
T12Y,0.173

# Block 2
# Target: Hepatocyte nuclear factor 3-beta, forkhead domain (FOXA2, Homo sapiens, UniProt Q9Y261, residues 142-269)
# Technique: protein-binding microarray
# Form: double-stranded DNA, one strand shown
# Matrix: in vitro
# Concentration: not given
# Notes: k-mer, scored over probes, only values ≥0.25
# Reading: higher = stronger binding
# Target sequence (chain): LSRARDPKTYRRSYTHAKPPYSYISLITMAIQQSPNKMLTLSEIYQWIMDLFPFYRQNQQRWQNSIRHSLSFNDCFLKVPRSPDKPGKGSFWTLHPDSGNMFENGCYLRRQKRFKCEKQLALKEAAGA
Sequence,E-score
TAAACAAA,0.299
AAACAGAT,0.291
ACAACAAT,0.363
CTTTACTA,0.258
TAACATTA,0.31
TATATGGA,0.295
TATACCAA,0.284
GATATGTA,0.271
CAGTATTC,0.266
ACACGTAA,0.307
ATCACATC,0.254

# Block 3
# Target: PABPC1L2, full length, GST fusion (mouse, UniProt A0ABA7IW68)
# Technique: RNAcompete
# Form: RNA
# Matrix: in vitro
# Concentration: 20 nM
# Notes: 7-mer, probes averaged, single round
# Relative to: mean of 7-mers
# Reading: higher = stronger binding
# Construct (chain): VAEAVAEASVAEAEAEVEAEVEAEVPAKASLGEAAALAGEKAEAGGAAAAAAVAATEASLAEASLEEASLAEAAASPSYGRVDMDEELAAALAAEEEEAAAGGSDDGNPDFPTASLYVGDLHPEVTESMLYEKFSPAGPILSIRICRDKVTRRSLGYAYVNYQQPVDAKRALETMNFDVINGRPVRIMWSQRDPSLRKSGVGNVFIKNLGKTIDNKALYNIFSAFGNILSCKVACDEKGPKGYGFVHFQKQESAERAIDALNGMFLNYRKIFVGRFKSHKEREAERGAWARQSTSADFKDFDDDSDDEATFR
Sequence,7-mer Z-score
AUAGCAU,0.0189
CACAGGG,0.0334
AGUCGUG,-0.275
GAGUGUG,-0.0971
AUUCUAG,-0.211
AUAUGGC,0.0152
GUGGUCC,-0.0754
AACCAUU,-0.148
GUCUAGU,-0.351
GCACUAC,-0.228

# Block 4
# Target: Histone acetyltransferase KAT6A, winged helix 2, GST fusion (KAT6A, Homo sapiens, UniProt Q92794, residues 85-181)
# Technique: protein binding microarray
# Form: double-stranded DNA, one strand shown
# Matrix: in vitro
# Concentration: not given
# Notes: 8-mer, flanks averaged, mean of 2 arrays, mostly near background
# Relative to: not given
# Reading: higher = stronger binding
# Construct (chain): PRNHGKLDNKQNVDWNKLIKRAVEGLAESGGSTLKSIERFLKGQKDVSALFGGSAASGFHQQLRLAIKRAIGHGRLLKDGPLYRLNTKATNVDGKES
Sequence,E-score
GTGCCAGA,-0.00873
CTGCCCCA,0.194
GGTCAACA,0.0695
CGGAGGGA,0.143
GCGTACGA,0.111
GACCAGTA,-0.0599
ACCGGAGA,0.0398
GCGGTGAC,0.0601
CCCAGGCC,0.057
AGCGCCTA,-0.132
ACCGGCTC,0.152
ATGACACC,-0.0956
TCGTTACA,-0.109
TCCCCACA,-0.126
AGCTCTCG,-0.00954
CCGAGAAA,0.0363
CAGACTCA,-0.0585
TAAAATAA,0.0639
GAGCTGCA,-0.00242
CGCGATCA,0.0591
CATGATCG,-0.237
CAGGTGGC,0.078
AGTCAGGC,0.00068
GGCAGCCC,0.0154
AATCAGGC,0.0674

# Block 5
# Target: Centromere-binding protein 1, full length, His-tagged (CBF1, Saccharomyces cerevisiae, UniProt P17106, residues 1-351)
# Chain of UniProt P17106 (whole entry, looked up): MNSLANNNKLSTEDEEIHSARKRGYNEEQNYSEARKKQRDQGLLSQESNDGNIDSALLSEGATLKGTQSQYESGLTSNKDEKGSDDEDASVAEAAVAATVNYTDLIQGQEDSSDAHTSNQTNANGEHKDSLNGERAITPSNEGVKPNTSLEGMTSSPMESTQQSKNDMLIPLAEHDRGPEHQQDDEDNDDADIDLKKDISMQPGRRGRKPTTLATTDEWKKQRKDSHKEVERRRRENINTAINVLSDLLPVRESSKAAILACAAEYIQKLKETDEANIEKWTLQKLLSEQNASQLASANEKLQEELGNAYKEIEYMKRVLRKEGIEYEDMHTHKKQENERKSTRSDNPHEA
# Technique: competition protein-binding microarray
# Form: double-stranded DNA, one strand shown
# Matrix: in vitro
# Concentration: 2 µM
# Notes: whole 60-bp probe, lowest competitor level
# Added: Pho4 competitor, 0.05 µM
# Reading: higher = stronger binding
Sequence,fluorescence intensity [a.u.]
AAATTACTAAGTTGTCACATTACTTACCCCGTATGAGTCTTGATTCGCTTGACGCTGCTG,125
AAATTACTAAGTTTTCACGTGGACTACCCCGTATGAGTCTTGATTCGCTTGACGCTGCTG,741
TGCGCAACAACTTGTGGTGTGGGTGTATGTCTAGAAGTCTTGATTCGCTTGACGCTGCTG,69
CGGGGTTAAGTTTTTCACGTGCCTTGCTTGCAGCAGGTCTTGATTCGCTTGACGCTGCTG,900
CATACCCAACCTTGACCCGTGGGTGAAGATATTTGTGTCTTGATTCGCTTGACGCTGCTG,67.5
CTTCTGTAAATTTGGACCGTGGGTGGACGCGCCCCGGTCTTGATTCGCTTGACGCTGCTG,76.2
TTTACTTAGAACGACCACGTTACGATCTTTAGTTCCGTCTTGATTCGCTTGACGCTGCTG,114
CATACCCAACCTTGGCGTGTGGGTGAAGATATTTGTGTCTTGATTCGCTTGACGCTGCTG,59.8
AAAGCGGTAATTTGCCGCGTGGGTGCAGATATCTATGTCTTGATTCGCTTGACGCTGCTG,88.5
CTTCTGTAAATTTGACACGTGGGTGGACGCGCCCCGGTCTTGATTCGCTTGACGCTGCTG,1110
AAGACGAAATTCTTGTTCGTGCCGATGTTGCCCTTTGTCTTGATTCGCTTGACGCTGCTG,66.4
GATCCGTATGCTCATCTCGTGATGGAGAAGTAACGCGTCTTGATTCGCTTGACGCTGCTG,403
ATCGTCAAAAGAGTAAACGTGCCGAGCAAAATCATCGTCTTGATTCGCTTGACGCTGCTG,127

# Block 6
# Target: Interferon regulatory factor 5, full length, phosphomimetic (IRF5, Homo sapiens, UniProt Q13568-2, residues 1-514, S451D/S453D/S456D/S462D)
# Technique: protein-binding microarray
# Form: double-stranded DNA, one strand shown
# Matrix: in vitro
# Concentration: 940 nM top
# Notes: 60-bp whole probe
# Added: salmon DNA 0.4 mg/ml
# Relative to: random background probes
# Reading: higher = stronger binding
# Constant ends, left off below: GCCTAGCAC … GTCTTGATTCGCTTGACGCTGCTG
Sequence,fitted relative affinity [z-score]
TTAAGACTGCTTTTCCTTTAGTGCTAG,0.255
AGCCTGGCCAAGCTCACAGCGTGCTAG,-0.904
GACGGACTGGAGACTGGGGACGTGCTA,-0.54
GACGAGTTCAGTTCCGAGACGTGCTAG,0.564
TCAGGTTAAAATTTTGCACTGTGCTAG,-0.239
TCAGTTTTCTCTCCCATACTGTGCTAG,1.81
TCATTTTGGTCTTTCTGACTGTGCTAG,0.525
GACAGTATCCTTTTCCTGACGTGCTAG,1.61
GACGGGTTCGGTTTCGGGACGTGCTAG,3.87
TACAGGATGGTTTTCAGAGAGTGCTAG,-0.102
ATTGCTTCCTCTTTTTTGTTGTGCTAG,1.54
CCACATCTCTGTCCGTGCTCGTGCTAG,0.708
GGGAAAATGGCTTTGCAGATGTGCTAG,-0.456
GACGATTTCGCGACTGGAGACGTGCTA,-0.0652
TCACTTTCCATTTCTGTTACTGTGCTA,2.73

# Block 7
# Target: Ras GTPase-activating protein-binding protein 1, RRM domain (G3BP1, Homo sapiens, UniProt Q13283)
# Chain of UniProt Q13283 (whole entry, looked up): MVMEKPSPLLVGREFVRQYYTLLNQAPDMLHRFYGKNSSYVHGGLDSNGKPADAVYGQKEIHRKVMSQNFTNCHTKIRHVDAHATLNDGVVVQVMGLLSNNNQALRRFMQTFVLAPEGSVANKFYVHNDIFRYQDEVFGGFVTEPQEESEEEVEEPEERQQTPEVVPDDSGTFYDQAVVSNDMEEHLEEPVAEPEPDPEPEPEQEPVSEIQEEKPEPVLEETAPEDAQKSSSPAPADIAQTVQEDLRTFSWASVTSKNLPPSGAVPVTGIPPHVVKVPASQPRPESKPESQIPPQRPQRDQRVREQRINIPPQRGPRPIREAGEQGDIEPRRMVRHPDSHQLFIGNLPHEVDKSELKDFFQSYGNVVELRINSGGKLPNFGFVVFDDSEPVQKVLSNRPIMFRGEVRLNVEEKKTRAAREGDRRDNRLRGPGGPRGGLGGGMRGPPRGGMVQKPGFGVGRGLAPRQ
# Technique: RNA Bind-n-Seq
# Form: RNA
# Matrix: in vitro
# Concentration: 1 µM
# Notes: whole 134-nt RNA, ends assumed
# Added: 150 mM KCl
# Relative to: input library
# Reading: higher = stronger binding
Sequence,log2 enrichment
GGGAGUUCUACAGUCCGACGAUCCAAGUCCUGUGCUACACAUCGUAUGUACCGAAUCGGAGGAAAAAGGUUUUUUUGGAAAGUAUUAUGUUACGCCGUUCGGAUCUGCACUUCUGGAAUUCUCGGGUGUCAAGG,-0.172
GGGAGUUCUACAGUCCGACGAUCUGGGAGGUGGAUUUUGUUUAUUUUUUUAGCUCAUUUCCAGGGGUGGGAAUUUUUUUUUAAUAUGUGACAUGAAUAAAGUUGUUUUUGAAAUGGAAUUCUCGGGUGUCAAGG,2.15
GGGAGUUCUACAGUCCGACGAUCCUGUGCUACACAUCGUAUGUACCGAAUCGGGGAAAAAGGGGAAAAAAAGGGGAAAAAGGGGAAAGUAUUAUGUUACGCCGUUCGGAUCUGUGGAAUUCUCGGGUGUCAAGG,0.721
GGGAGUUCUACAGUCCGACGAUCUGGGAGGUGGAUUUUGUUUAUUUUUUUAGCUCAUUUCCAGGGGUGGGAAUUUUUUUUUAAUACGUGUCAUGAAUAAAGUUGUUUUUGAAAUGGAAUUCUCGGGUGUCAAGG,1.74
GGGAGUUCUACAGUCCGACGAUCGAAAGAAGUAAAAACAAAUGGAAAUGCUUCGGAUAGUGGCAGGGGUGGGGGUUGCUAAGGAAAGGGUGGGAUGGGAGUGGGUAAAGAGUUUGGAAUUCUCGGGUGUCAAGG,1.18
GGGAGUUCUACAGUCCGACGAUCUGGCCCUGGUGGCAUGCGGGGCGGAAGAGGUGGCCUCAUGGAUCGUGGUGGUCCCGGUGGAAUGUUCAGAGGUGGCCGUGGUGGAGACAGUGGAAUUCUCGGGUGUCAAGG,0.979
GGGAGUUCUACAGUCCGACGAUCAGUCCUGUGCUACACAUCGUAUGUACCGAAUCGGGGCCCCGGGGCCCCGGGCCCCGGAAAGUAUUAUGUUACGCCGUUCGGAUCUGCACUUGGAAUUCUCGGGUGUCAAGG,0.98
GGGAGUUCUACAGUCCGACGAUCUGUGCUACACAUCGUAUGUACCGAAUCGGGGUUUUUUUGGUUUUUUUGGGGUUUUUUUGGGGAAAGUAUUAUGUUACGCCGUUCGGAUCUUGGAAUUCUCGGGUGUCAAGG,-0.312

# Block 8
# Target: Sal-like protein 4, full length isoform B (SALL4, Homo sapiens, UniProt Q9UJQ4-2, residues 1-616)
# Technique: universal PBM
# Form: double-stranded DNA, one strand shown
# Matrix: in vitro
# Concentration: not given
# Notes: 8-mer, flanks averaged, mean of replicates
# Reading: higher = stronger binding
Sequence,E-score
AAGGTGAT,0.0513
CAAAGTCC,-0.146
AGTATAGA,0.176
CGCCTGAC,-0.142
CGCCTAAA,-0.00768
AGTTGGCC,-0.226
CGCACATA,-0.0877
CGTACTCC,-0.166
GAGTTCAC,-0.208
CGAAGCAG,-0.178
AGCAAACC,0.0678
ATGTATTG,0.273
ACATCGAT,0.123
ACCGTTTC,-0.182
GACAGCTC,-0.331
GATTAGCC,-0.098
AAAGCGCT,0.184
GCTTTGCA,-0.225
AACATCCC,-0.131

# Some of these lines once more (block 5):
Sequence,fluorescence intensity [a.u.]
AAATTACTAAGTTTTCACGTGGACTACCCCGTATGAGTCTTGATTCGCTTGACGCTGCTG,741
ATCGTCAAAAGAGTAAACGTGCCGAGCAAAATCATCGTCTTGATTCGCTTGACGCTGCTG,127
TTTACTTAGAACGACCACGTTACGATCTTTAGTTCCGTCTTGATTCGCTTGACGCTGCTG,114
TGCGCAACAACTTGTGGTGTGGGTGTATGTCTAGAAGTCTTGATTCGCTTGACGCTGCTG,69
CGGGGTTAAGTTTTTCACGTGCCTTGCTTGCAGCAGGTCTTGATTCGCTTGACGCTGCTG,900
AAATTACTAAGTTGTCACATTACTTACCCCGTATGAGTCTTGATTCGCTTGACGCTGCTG,125
CTTCTGTAAATTTGGACCGTGGGTGGACGCGCCCCGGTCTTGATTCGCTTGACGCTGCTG,76.2
CATACCCAACCTTGACCCGTGGGTGAAGATATTTGTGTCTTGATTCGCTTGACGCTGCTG,67.5
AAAGCGGTAATTTGCCGCGTGGGTGCAGATATCTATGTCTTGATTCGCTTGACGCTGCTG,88.5
AAGACGAAATTCTTGTTCGTGCCGATGTTGCCCTTTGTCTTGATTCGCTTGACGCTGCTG,66.4
GATCCGTATGCTCATCTCGTGATGGAGAAGTAACGCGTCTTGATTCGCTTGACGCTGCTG,403
CTTCTGTAAATTTGACACGTGGGTGGACGCGCCCCGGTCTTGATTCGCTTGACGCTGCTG,1110
CATACCCAACCTTGGCGTGTGGGTGAAGATATTTGTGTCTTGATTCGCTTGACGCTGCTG,59.8
